Published values pooled from the literature.
Each numbered part is a random draw from the data of one study; scales do not carry over between parts. “And” joins repeats or separate records; there may be more than shown.
Sequence of UniProt P30530 (whole entry, looked up): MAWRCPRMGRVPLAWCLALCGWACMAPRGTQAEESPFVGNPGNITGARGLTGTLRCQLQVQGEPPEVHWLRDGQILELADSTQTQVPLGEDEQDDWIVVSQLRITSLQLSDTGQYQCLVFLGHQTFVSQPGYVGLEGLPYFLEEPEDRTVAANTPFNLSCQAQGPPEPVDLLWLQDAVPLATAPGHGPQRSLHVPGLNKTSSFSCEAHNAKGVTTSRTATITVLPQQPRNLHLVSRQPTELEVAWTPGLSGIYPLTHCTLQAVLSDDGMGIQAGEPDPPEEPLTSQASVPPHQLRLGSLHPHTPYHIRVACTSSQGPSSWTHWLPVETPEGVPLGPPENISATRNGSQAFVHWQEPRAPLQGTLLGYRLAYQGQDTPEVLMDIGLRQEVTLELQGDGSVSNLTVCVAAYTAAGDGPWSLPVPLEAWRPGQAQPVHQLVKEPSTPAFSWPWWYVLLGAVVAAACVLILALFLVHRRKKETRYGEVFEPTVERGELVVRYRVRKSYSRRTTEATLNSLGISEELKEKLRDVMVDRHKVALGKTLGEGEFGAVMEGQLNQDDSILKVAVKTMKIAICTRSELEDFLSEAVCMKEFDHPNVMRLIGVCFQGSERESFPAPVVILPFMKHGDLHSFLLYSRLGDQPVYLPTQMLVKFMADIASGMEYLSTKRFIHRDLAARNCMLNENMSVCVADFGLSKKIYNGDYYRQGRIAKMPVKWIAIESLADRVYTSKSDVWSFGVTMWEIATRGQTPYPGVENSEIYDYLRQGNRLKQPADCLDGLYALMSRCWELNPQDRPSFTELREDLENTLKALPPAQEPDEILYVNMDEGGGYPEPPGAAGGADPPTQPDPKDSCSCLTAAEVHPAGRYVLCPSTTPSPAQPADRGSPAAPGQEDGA
Sequence of UniProt P54764 (whole entry, looked up): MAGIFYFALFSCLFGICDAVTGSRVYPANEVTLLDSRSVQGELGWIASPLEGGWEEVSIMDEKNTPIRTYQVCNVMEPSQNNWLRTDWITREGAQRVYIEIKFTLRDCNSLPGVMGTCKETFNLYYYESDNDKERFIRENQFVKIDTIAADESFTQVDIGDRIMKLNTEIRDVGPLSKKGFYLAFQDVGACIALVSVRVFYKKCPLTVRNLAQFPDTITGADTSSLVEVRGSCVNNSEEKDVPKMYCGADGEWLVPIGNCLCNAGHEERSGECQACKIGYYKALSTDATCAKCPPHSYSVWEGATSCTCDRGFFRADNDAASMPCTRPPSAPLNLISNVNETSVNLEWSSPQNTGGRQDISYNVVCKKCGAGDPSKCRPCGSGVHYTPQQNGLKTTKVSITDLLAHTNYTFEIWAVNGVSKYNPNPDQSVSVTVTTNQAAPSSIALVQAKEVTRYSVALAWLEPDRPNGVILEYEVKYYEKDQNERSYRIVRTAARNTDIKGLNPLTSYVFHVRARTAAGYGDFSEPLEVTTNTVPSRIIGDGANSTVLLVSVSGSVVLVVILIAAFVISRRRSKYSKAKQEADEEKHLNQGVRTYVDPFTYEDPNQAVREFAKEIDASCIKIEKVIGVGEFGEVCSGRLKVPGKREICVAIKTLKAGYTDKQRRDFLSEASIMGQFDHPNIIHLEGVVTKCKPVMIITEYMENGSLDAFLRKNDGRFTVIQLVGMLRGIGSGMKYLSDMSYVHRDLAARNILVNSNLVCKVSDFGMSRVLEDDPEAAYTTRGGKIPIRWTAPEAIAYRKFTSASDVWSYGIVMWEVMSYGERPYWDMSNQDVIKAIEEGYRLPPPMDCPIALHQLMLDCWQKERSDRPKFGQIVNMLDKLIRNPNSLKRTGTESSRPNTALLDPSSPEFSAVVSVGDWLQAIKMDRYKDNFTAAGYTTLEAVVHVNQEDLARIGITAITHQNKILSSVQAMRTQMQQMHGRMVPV
Sequence of UniProt P11802 (whole entry, looked up): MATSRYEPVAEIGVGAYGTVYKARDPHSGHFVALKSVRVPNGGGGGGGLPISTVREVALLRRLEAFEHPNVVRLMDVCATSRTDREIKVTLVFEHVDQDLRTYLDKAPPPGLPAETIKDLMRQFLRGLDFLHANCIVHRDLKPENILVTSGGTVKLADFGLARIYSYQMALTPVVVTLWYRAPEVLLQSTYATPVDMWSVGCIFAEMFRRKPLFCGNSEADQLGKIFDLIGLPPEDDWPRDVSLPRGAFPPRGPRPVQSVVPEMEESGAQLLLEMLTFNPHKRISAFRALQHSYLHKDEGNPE
Sequence of UniProt O75582 (whole entry, looked up): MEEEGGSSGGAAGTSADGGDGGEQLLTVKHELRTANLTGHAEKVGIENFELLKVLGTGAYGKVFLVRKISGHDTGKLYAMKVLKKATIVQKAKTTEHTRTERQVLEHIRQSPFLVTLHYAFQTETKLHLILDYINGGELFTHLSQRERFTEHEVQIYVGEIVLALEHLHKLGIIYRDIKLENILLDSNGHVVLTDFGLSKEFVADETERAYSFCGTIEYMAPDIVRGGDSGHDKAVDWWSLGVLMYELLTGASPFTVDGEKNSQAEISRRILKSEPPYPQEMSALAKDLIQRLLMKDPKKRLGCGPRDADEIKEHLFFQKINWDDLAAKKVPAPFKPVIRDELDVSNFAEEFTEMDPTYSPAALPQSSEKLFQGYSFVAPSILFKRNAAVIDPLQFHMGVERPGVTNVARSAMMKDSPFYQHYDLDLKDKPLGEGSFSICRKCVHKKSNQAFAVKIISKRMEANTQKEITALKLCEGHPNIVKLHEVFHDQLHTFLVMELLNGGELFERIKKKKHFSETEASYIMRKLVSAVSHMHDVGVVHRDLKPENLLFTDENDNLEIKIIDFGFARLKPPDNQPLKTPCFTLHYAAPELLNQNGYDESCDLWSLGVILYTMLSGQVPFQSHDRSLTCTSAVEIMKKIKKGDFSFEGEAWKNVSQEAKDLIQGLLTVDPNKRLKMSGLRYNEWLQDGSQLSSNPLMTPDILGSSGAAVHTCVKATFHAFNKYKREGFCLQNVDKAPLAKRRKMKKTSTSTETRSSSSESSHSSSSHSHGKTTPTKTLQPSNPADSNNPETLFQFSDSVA
Sequence of UniProt Q9H2K8 (whole entry, looked up): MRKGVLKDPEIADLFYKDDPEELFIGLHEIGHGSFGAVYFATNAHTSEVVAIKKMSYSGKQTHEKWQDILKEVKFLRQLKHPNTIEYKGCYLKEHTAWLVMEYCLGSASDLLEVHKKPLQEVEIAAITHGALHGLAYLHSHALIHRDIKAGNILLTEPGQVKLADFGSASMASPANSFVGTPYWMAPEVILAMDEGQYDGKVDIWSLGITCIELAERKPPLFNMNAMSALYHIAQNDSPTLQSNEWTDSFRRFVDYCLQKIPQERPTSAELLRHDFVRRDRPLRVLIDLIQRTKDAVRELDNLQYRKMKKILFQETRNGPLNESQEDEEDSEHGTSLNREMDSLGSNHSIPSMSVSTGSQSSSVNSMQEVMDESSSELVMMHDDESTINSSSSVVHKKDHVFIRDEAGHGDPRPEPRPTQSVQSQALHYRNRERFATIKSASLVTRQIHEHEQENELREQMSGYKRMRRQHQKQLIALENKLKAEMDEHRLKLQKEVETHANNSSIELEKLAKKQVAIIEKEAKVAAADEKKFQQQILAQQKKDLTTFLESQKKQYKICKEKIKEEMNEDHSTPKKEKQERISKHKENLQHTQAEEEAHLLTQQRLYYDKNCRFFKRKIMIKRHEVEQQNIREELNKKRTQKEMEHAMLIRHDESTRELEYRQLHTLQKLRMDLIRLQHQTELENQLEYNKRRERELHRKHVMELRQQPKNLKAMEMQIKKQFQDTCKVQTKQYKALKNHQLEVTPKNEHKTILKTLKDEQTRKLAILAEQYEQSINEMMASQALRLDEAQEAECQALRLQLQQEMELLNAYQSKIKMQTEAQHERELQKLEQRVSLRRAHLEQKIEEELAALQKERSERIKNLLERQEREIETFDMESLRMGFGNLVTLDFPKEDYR
Sequence of UniProt Q9NSY1 (whole entry, looked up): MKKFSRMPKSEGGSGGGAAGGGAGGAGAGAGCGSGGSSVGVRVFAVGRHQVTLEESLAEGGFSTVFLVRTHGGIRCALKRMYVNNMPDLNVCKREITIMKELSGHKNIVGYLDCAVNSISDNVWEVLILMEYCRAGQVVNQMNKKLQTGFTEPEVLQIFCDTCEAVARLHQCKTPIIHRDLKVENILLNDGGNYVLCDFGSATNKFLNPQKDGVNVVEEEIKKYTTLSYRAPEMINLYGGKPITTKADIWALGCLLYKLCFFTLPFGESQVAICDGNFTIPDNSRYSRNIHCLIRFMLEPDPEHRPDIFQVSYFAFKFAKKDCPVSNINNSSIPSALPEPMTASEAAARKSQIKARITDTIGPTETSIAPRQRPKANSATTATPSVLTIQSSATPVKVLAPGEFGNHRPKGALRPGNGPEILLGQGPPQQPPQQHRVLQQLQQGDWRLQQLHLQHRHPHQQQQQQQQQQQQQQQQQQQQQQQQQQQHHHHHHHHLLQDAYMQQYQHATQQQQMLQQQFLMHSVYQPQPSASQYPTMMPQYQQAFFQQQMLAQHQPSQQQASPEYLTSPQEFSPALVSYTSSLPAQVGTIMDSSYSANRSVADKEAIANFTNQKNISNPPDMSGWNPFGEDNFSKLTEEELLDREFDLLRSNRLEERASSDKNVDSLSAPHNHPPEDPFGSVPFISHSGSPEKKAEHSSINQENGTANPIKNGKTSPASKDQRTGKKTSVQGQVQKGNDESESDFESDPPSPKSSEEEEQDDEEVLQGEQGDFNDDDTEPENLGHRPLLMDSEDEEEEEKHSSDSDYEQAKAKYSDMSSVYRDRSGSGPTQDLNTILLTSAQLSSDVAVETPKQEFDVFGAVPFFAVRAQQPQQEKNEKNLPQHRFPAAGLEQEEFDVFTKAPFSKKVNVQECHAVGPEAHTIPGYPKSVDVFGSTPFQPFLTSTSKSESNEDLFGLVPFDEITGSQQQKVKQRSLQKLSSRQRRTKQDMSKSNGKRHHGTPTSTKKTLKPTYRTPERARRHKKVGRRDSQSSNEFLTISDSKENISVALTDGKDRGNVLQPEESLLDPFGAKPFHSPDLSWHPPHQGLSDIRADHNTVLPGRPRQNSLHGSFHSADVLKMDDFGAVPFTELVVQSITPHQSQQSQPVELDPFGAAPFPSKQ

Sample 1
SMILES: CSc1cccnc1N1CCN(Cc2nc3ccccc3[nH]2)CC1
Method: competition with immobilised ligand
Concentration: 1 µM
target	assay	remaining binding
MAP3K3 (Homo sapiens, UniProt Q99759)	cell-free assay	83%
NEK3 (Homo sapiens, UniProt P51956)	cell-free assay	88%
AXL (Homo sapiens, UniProt P30530)	binding	100%
Receptor-type tyrosine-protein kinase FLT3, autoinhibited (FLT3, Homo sapiens, UniProt P36888)	cell-free assay	91%
TAOK3 (Homo sapiens, UniProt Q9H2K8)	cell-free assay	93%
CHUK (Homo sapiens, UniProt O15111)	cell-free assay	98%
STK36 (Homo sapiens, UniProt Q9NRP7)	cell-free assay	97%
MET (Homo sapiens, UniProt P08581, M1250T)	cell-free assay	98%
EGFR (Homo sapiens, UniProt P00533, del747-750/T751S)	cell-free assay	82%
BMP2K (Homo sapiens, UniProt Q9NSY1)	cell-free assay	100%
CDK17 (Homo sapiens, UniProt Q00537)	cell-free assay	100%
MAP3K19 (Homo sapiens, UniProt Q56UN5)	cell-free assay	72%
EPHA7 (Homo sapiens, UniProt Q15375)	cell-free assay	93%

Sample 2
Compound: COc1ccc(COc2ccc(Cc3cnc(N)nc3N)cc2OC)cc1
Observed: enzyme activity
Mode: inhibitor
Concentration: 0.5 µM
Reference: control
target	remaining activity [%]
WNK3 (Homo sapiens, UniProt Q9BYP7)	100
Cyclin-dependent kinase 4, with cyclin D3 (CDK4, Homo sapiens, UniProt P11802)	107
EPHB1 (Homo sapiens, UniProt P54762)	103
DYRK3 (Homo sapiens, UniProt O43781)	108
STK17A (Homo sapiens, UniProt Q9UEE5)	102
BLK (Homo sapiens, UniProt P51451)	98.6
MAPKAPK3 (Homo sapiens, UniProt Q16644)	96
Cyclin-dependent kinase 6, with cyclin D3 (CDK6, Homo sapiens, UniProt Q00534)	94.5
TSSK2 (Homo sapiens, UniProt Q96PF2)	109
EPHA4 (Homo sapiens, UniProt P54764)	105
AXL (Homo sapiens, UniProt P30530)	96.5
Cyclin-dependent kinase 1, with cyclin B (CDK1, Homo sapiens, UniProt P06493)	91.3
MAP4K4 (Homo sapiens, UniProt O95819)	99
HIPK2 (Homo sapiens, UniProt Q9H2X6)	103
STK16 (Homo sapiens, UniProt O75716)	106
RPS6KA5 (Homo sapiens, UniProt O75582)	103
SRMS (Homo sapiens, UniProt Q9H3Y6)	95.9
PHKG1 (Homo sapiens, UniProt Q16816)	95.3

Sample 3
Species: human
Matrix: microsomes or S9
Concentration: 2 µM
Time: 0.5 h
SMILES	remaining compound
Cc1ccccc1/N=C1\Nc2cccc3cccc1c23	2.77%
Cc1cc(=O)n2nc(CN(C(=O)CC(C)C)c3ccc(F)cc3)nc2[nH]1	93.7%
COc1cccc(CCN[C@H]2CS(=O)(=O)C[C@@H]2S(=O)(=O)c2ccc(Cl)cc2)c1	0.297%
COc1cc(=O)n(C)cc1C(=O)NCCOc1ccc(F)cc1	> 99%
Cc1ccc(C(=O)N2CCc3c([nH]cnc3=O)C2)s1	54.7%
O=C1Nc2ccccc2C1(c1c[nH]c2ccccc12)c1c[nH]c2ccccc12	79.1%
CC(C)OCCCNCc1ccccc1OCc1ccc(Cl)cc1Cl	25.3%
CCC(Oc1ccccc1F)C(=O)Nc1c(C)cccc1C (stereo not drawn)	4.89%

Other studies, line by line
Compound	tested on	assay	system	setting	scale	quantity	value
c1ccc2c(-c3nn4c(-c5ccncc5)nnc4s3)c[nH]c2c1	Gaucher fibroblasts L444P/L444P	4-MUG hydrolysis, cell lysate	–	0.5 µM, 72 h, added: ISRIB	reference: vehicle	GCase activity	199% and 213% and 212% and 222% and 220% and 195% and 190% and 196%
CC(C)n1cnc(-c2ccc(F)cc2)c1-c1ncc(C(=O)Nc2ccc(N3CCN(C)CC3)cc2)[nH]1	–	–	human, idiopathic pulmonary fibrosis	60 mg once daily, trial, treatment-emergent	–	grade 5 ECG high voltage	0%
Ic1ccc(Nc2nc(NCCN3CCOCC3)nc(N3CCOCC3)n2)cc1	Gaucher fibroblasts L444P/L444P	4-MUG hydrolysis, cell lysate	–	1 µM, 72 h, added: ISRIB	reference: vehicle	GCase activity	133% and 148% and 169% and 145% and 151% and 143% and 135% and 116%
